Measured values from different studies.
Each line is one published result; not all experiments were run side by side. Numbers after ± are the reported error.
Method: steady-state kinetics
B1: enzyme (Ectocarpus siliculosus, UniProt D7FYY3); chain KTASLATVSSLGIDKATGITKPSTVHHNLPYPQVFEHETKNKEGESTANGTFCVSTGQFTGRSPKDKYFVQQAPSDKTLDWGKINVGVAPKVFENIYNKAVKHYNDNVDSMYVFDGYCGTSPKSRKNVRIITELAWQHHFAKNMFIRPETEAETAGFKPDFTIINACKVVNDDYKELGLNSEVAVVFNVEERKAVITGTWYGGEMKKGIFSMMNYWLPLDGVMAMHCSANKGKNGDTALFFGLSGTGKTTLSADPERYLIGDDEHGWDDDGIFNFEGGCYAKTINLSHENEPEIYDAIKRDALLENVVIKDNGEPDYTDVSKTENTRVSYPIYHIDNYEPSGMGGHPNSVIFLTCDAFGILPPVSRLSAGQAMYHFLSGYTAKVAGTERGVTEPTPNFSAGFGAAFLTLHPTMYADLLQKKLAKHGTQCYLINTGWTGGGYGVGKRMSIKATRACVDAVLDGSIGKTTFTPDPVFGFEVPAELPGVPAKVLNPREAWSDKKGYDATRTKLAGMFKDNFTKFVKPGVTDYTSYGPK
B2: enzyme (UniProt A0A0P0CH59); chain MRIALFSDIHANLPALEAVLANMETQQLDAIYCLGDLVGYAPWPNEVVAEIRKRRIPTIAGNYDEGVGLWSPNCGCAYKTDTEKDLGQQSIDFTNNVVTEETRKYLRMLPRQLRLTFMDGSKEENKIELLLVHGSPRKINEYLFEDRPEKSFLKMMEEANADLLFFGHTHKPYHRAMPYEHEGQTRYRHAINIGSVGKPKDGDPRTGYVVVELTPESSLTQKDSIKVEFIRVPYDVETAAQAVEASPLPNEFAQMLRTA
B3: enzyme (Oryza sativa, UniProt Q6ZGQ4); chain ASGPPFSCGAPSSAAFCNPRLPIEQRADDLVSRLTLEEKISQLGDQSPAVDRLGVPAYKWWSEALHGVSNAGRGIHLDGPLRAATSFPQVILTAASFNPHLWYRIGQVIGTEARAVYNNGQAEGLTFWAPNINVFRDPRWGRGQETPGEDPTVTGKYAAVFVRGVQGYALAGAINSTDLEASACCKHFTAYDLENWKGVTRYAFDAKVTAQDLADTYNPPFRSCVEDGGASGIMCSYNRVNGVPTCADYNLLSKTARGDWRFYGYITSDCDAVSIIHDVQGYAKTAEDAVADVLKAGMDVNCGSYVQEHGLSAIQQGKITEQDINRALHNLFAVRMRLGLFNGNPKYNRYGNIGPDQVCTQEHQNLALEAAQHGVVLLKNDANALPLSKSQVSSIAVIGHNANDATRLLGNYFGPPCISVTPLQVLQGYVKDTRFLAGCNSAACNVSSIGEAAQLASSVDYVVLFMGLDQDQEREEVDRLELSLPGMQENLINTVANAAKKPVILVLLCGGPVDVTFAKYNPKIGAILWAGYPGEAGGIAIAQVLFGEHNPGGRLPVTWYPKEFTSVPMTDMRMRADPSTGYPGRTYRFYRGNTVYKFGYGLSYSKYSHHFVANGTKLPSLSSIDGLKAMATAAAGTVSYDVEEIGPETCDKLKFPALVRVQNHGPMDGRHPVLLFLRWPNGAADGGRPASQLIGFQSLHLKSMQTVHVEFEVSPCKHFSRATEDGKKVIDHGSHFMMVGDDEFEMSFTP
B4: acsA (Pseudomonas chlororaphis, UniProt Q5CD72); chain MRDYEHVVESFDYLQSATQDLHGELTALNACVECCDRHAHGEAVALYCEAQDGHAERYRFRDLQRQAARFGNFLREQGVKPGDRVAGLMPRTVELLIAILGTWRIGAVYQPLFTAFGPKAIEQRLNCSNARWIVTDPHNRPKLDDVTDCPSIVVTGGAPQNPADHHFWSALNRQADDCAPVLLDASAPFLLMCTSGTTGPAKPLEVPLSAILAFKGYMRDAIDLRADDRFWNLADPGWAYGLYYAVTGPLACGYATLFYDGPFTVESTRHIIAKYAINNLAGSPTAYRFLIAAGAEFADAVRGRLRAVSSAGEPLNPQVVRWFAEQLGVVIHDHYGQTEIGMVLCNHHGLRHPVREGSAGYAVPGYRIVVLDKAHRELPAGQPGVLAVDRERSPLCWFDGYLGMPTQAFAGRYYLSGDIVELNDDGSISFVGRNDDLITTSGYRVGPFDVESALIEHPAVVEAAVIGKPDPQRTELIKAFVVLNTPYLPSPELAEELRLHVRQRLAAHAYPREMEFVDHLPKTPSGKLQRFILRNQEIAKQQALG
B5: enzyme (Salinispora arenicola, UniProt A8M783); chain MASTPWISFTTDYGLADGFVAACHGVLARLAPTARVIDVTHLVPPGDVRRGAAVLAQTVPYLPAAVHVAVVDPGVGTARRAIALTAGNGLLVGPDNGLLLDAATALGGVDAAVELTNPDWLGARMSATFHGRDVFAPVAARLALGAPLADAGPAVEPGALVRLPTPLVQPETDGFTAEVLTVDHFGNVQLAATGALLESLPRSLRVAHRPAVHARTFDDAPPGGLLVHVDSAGLVAVAVNGGRAADLLAVTPGDQLRVTAG
B6: enzyme (Pseudomonas poae, UniProt A0A2S9EJ63); chain MSTQHYDYIIVGGGSAGSVLANRLSAQADKRVLLIEAGADTPEHDTPTDILDGLQPWLPRLAGERYFWPGLNILRASEHGDIPREPQLYEQARILGGGSSVNMMVANRGLPRDYDEWARLGADGWDWQGVLPYFRKLERDLDFGHSHPEQHGQDGPIPIARVDSRHWGSFTRASAQALHTQGLNDIVDQNGRFEDGYFAPAVAIEHDQRVSSARAYLNAAVRARPNLSVWADTTVRQLTVKGQRVTGVQAVRDGRTVELAGDEVILAAGALQSPAFLLRAGIGPADQLRDLGIEVIADRPGVGRNLWDHSSIGLSASLHHPQVPSDEPGAAHLLAARVSSGVEPSVPGDLYLGIAPNAALGLASAVLWVNKPSSSGHLRLRSKDPADYPAVEFNLLSDRRDLERLRQGLRLLARVFAHPAVAAFSGPPRLSRFAQASNEGPLLSELLANDAQLERYLRTHVGGVWHASGTCRIGRADDPQAVVDHAGRVHGVQGLRVADASVFPSIPTANTNLPTLMIAEKIAEAILANA
B7: enzyme (Methylibium petroleiphilum, UniProt A2SI32); chain PFAQIYLIEGRTEEQKRAVIEKVTQAMMEAVGAPKENVRVWIHDVPKENWGIGGVSAKALGR
B8: enzyme K234A (Methanosarcina mazei, UniProt Q8PVB1); chain MSEQRSVPLREHLLALKPCRHGGLIQETSETYGIPENEILDFSANFNPLGSPFDYPENGLNFEDIIKKSCGKLLEYPDNRYVEFREAAARFVGLGVTPQSIVPGNGSTEIVRLVVESVIEKGDKVLLPWPTFGEYEMQCRITGAEPVCPSQEEVNTLPDEVLEEAKILFICNPNNPTGKLRTREELKVLAERCREHKTLLYVDEAFIELSDPSQSVADLPAENNYVFVMRSLTADFAIPGIRMGFGIAPPAMADILNTARLSWNLGAIANNTGIALLNIEGGIDSPYLKKAREMILKEGETLKAKIDRIRGFEAGEVNVNFILVDVSKFMLNSSELTARLAARGVLVRDCVSFHGLGKNYIRVAVRTEKENDRLIAAIGDVITEWGREQAKNELQHVIEKASEEGIGGRKTCEYYPCHFEGQNCTFCFCPFYPCENEKTGGKWIQSSRGGRVWSCVDCHLVHKKEIAQKILDCLMHEGDTDELVKVAWKEVMEPIL
B9: enzyme S252E/S281E/S285E/S287E (Schizosaccharomyces pombe, UniProt P78804); chain MSTPYEPEFQQAYKEIVGSIESSKLFEVHPELKRVLPIISIPERVLEFRVTWEDDKGNCRVNTGYRVQFNSALGPYKGGLRFHPSVNLSILKFLGFEQIFKNALTGLPMGGGKGGSDFDPKGKSDNEIRRFSQAFMRQLFRYIGPQTDVPAGDIGVTGFVVMHMFGEYKRLRNEYSGVVTGKHMLTGGSNIRPEATGYGVVYYVKHMIEHRTKGAETLKGKRVAISGSGNVAQYAALKCIQEGAIVKSISDEKGVLIAKTAEGLVPEEIHEIMALKEKRAEIADEAELCKKHHYIAGARPWTNVGEIDIALPCATQNEVSGEEAAALIKQGCRYVAEGSNMGSSAEAVEVFEKSRASGEGCWLAPGKAANAGGVAVSGLEMAQNAQFSTWTHAEVDAKLAGIMQNIFEQSTDVASKYCDSGSNNIPSLVDGANIAGFLKVATAMQAVGDWW
B10: ispG (Escherichia coli, UniProt P62620); chain MHNQAPIQRRKSTRIYVGNVPIGDGAPIAVQSMTNTRTTDVEATVNQIKALERVGADIVRVSVPTMDAAEAFKLIKQQVNVPLVADIHFDYRIALKVAEYGVDCLRINPGNIGNEERIRMVVDCARDKNIPIRIGVNAGSLEKDLQEKYGEPTPQALLESAMRHVDHLDRLNFDQFKVSVKASDVFLAVESYRLLAKQIDQPLHLGITEAGGARSGAVKSAIGLGLLLSEGIGDTLRVSLAADPVEEIKVGFDILKSLRIRSRGINFIACPTCSRQEFDVIGTVNALEQRLEDIITPMDVSIIGCVVNGPGEALVSTLGVTGGNKKSGLYEDGVRKDRLDNNDMIDQLEARIRAKASQLDEARRIDVQQVEK

| Substance | substrate | setting | kcat |
| --- | --- | --- | --- |
| enzyme (UniProt Q83XK4) | NC(=O)C1=CN([C@@H]2O[C@H](COP(=O)(O)OP(=O)(O)OC[C@H]3O[C@@H](n4cnc5c(N)ncnc54)[C@H](OP(=O)(O)O)[C@@H]3O)[C@@H](O)[C@H]2O)C=CC1 | pH 7, 30 °C, cofactor varied | 0.24 ± 0.02 s⁻¹ |
| B1 (enzyme) | Nc1ncnc2c1ncn2[C@@H]1O[C@H](COP(=O)(O)OP(=O)(O)O)[C@@H](O)[C@H]1O | pH 5.5, 25 °C, together with: 16 mM PEP | 17.6 ± 0.2 s⁻¹ |
| HNL C81L/E79H/G176S/H103V/K236M/N104A/S105A/T11G/V106F (Hevea brasiliensis) | CC(=O)Oc1ccc([N+](=O)[O-])cc1 | pH 7.2, 22 °C | 0.135 ± 0.00667 s⁻¹ |
| B2 (enzyme) | O=[N+]([O-])c1ccc(OP(=O)(O)O)cc1 | 37 °C, together with: Ni2+ 0.25 mM | 0.07 ± 0.00667 s⁻¹ |
| enzyme (Thermoplasma volcanium, UniProt Q978S7) | OC[C@H]1O[C@H](O[C@H]2O[C@H](CO)[C@@H](O)[C@H](O)[C@H]2O)[C@H](O)[C@@H](O)[C@@H]1O | pH 3.7, 30 °C | 26.6 ± 0.3 s⁻¹ |
| nudC (Escherichia coli, UniProt P32664) | Nc1ncnc2c1ncn2[C@@H]1O[C@H](COP(=O)(O)OP(=O)(O)OP(=O)(O)OP(=O)(O)OP(=O)(O)OC[C@H]2O[C@@H](n3cnc4c(N)ncnc43)[C@H](O)[C@@H]2O)[C@@H](O)[C@H]1O | together with: Mg2+ | 0.014 ± 0.005 s⁻¹ |
| B3 (enzyme) | O=[N+]([O-])c1ccc(O[C@@H]2OC[C@@H](O)[C@H](O)[C@H]2O)cc1 | pH 4, 40 °C, apparent | 12 ± 0.2 s⁻¹ |
| spt (Sphingomonas paucimobilis, UniProt Q93UV0) | CCCCCCCCCCCCCC(=O)SCCNC(=O)CCNC(=O)[C@H](O)C(C)(C)COP(=O)(O)OP(=O)(O)OC[C@H]1O[C@@H](n2cnc3c(N)ncnc32)[C@H](O)[C@@H]1OP(=O)(O)O | together with: PLP | 0.76 ± 0.03 s⁻¹ |
| B4 (acsA) | CCCC(=O)O | pH 7 | 0.217 ± 0.0167 s⁻¹ |
| B5 (enzyme) | C[S+](CC[C@H](N)C(=O)O)C[C@H]1O[C@@H](n2cnc3c(N)ncnc32)[C@H](O)[C@@H]1O | pH 7.9, 37 °C, apparent, together with: 1-200 µM SAM | 0.0075 ± 0.00117 s⁻¹ |
| enzyme Y41F (Homo sapiens, UniProt Q08623) | O=c1[nH]cc([C@@H]2O[C@H](COP(=O)(O)O)[C@@H](O)[C@H]2O)c(=O)[nH]1 | pH 7, 25 °C | 1.62 s⁻¹ |
| B6 (enzyme) | O=Cc1ccc(C=O)o1 | pH 8, 30 °C, together with: 2 µM FAD | 0.00841 s⁻¹ |
| B7 (enzyme) | C/C(=C\C=C(/O)C(=O)O)C(=O)O | pH 7.3, 24 °C | 107 ± 3 s⁻¹ |
| B8 (enzyme K234A) | Nc1ncnc2c1ncn2[C@@H]1O[C@H](COP(=O)(O)OP(=O)(O)OP(=O)(O)O)[C@@H](O)[C@H]1O | pH 8.5, 25 °C, apparent, anoxic, together with: L-Thr 10 mM | 0.01 ± 0.0003 s⁻¹ |
| B9 (enzyme S252E/S281E/S285E/S287E) | NC(=O)C1=CN([C@@H]2O[C@H](COP(=O)(O)OP(=O)(O)OC[C@H]3O[C@@H](n4cnc5c(N)ncnc54)[C@H](O)[C@@H]3O)[C@@H](O)[C@H]2O)C=CC1 | pH 7, 30 °C, apparent | 140 ± 3 s⁻¹ |
| enzyme (Lactiplantibacillus plantarum, UniProt Q06115) | C[C@H](CCC(=O)N[C@@H](Cc1ccccc1)C(=O)O)[C@H]1CC[C@H]2[C@@H]3[C@H](O)C[C@@H]4C[C@H](O)CC[C@]4(C)[C@H]3C[C@H](O)[C@]12C | pH 6.2, 37 °C | 16.1 ± 1.57 s⁻¹ |
| enzyme (UniProt F0RRL2) | OC[C@H]1O[C@@](CO)(O[C@H]2O[C@H](CO)[C@@H](O)[C@H](O)[C@H]2O)[C@@H](O)[C@@H]1O | pH 5.5, 37 °C, apparent | 95.1 ± 6.4 s⁻¹ |
| B10 (ispG) | C[C@]1(CO)O[C@@H]1COP(=O)(O)OP(=O)(O)O |  | 0.335 s⁻¹ |
| enzyme (Arabidopsis thaliana, UniProt Q944I4) | O=C(O)[C@H](O)CO | pH 7.8, 30 °C | 50 ± 1.06 s⁻¹ |

For quick reference, copied from above:
| Substance | substrate | setting | kcat |
| --- | --- | --- | --- |
| enzyme (Thermoplasma volcanium, UniProt Q978S7) | OC[C@H]1O[C@H](O[C@H]2O[C@H](CO)[C@@H](O)[C@H](O)[C@H]2O)[C@H](O)[C@@H](O)[C@@H]1O | pH 3.7, 30 °C | 26.6 ± 0.3 s⁻¹ |
| nudC (Escherichia coli, UniProt P32664) | Nc1ncnc2c1ncn2[C@@H]1O[C@H](COP(=O)(O)OP(=O)(O)OP(=O)(O)OP(=O)(O)OP(=O)(O)OC[C@H]2O[C@@H](n3cnc4c(N)ncnc43)[C@H](O)[C@@H]2O)[C@@H](O)[C@H]1O | together with: Mg2+ | 0.014 ± 0.005 s⁻¹ |
| B3 (enzyme) | O=[N+]([O-])c1ccc(O[C@@H]2OC[C@@H](O)[C@H](O)[C@H]2O)cc1 | pH 4, 40 °C, apparent | 12 ± 0.2 s⁻¹ |
